Experimental data from different studies.
Parts stem from different laboratories: compare values within a part only.
Sequence of UniProt O15294 (whole entry, looked up): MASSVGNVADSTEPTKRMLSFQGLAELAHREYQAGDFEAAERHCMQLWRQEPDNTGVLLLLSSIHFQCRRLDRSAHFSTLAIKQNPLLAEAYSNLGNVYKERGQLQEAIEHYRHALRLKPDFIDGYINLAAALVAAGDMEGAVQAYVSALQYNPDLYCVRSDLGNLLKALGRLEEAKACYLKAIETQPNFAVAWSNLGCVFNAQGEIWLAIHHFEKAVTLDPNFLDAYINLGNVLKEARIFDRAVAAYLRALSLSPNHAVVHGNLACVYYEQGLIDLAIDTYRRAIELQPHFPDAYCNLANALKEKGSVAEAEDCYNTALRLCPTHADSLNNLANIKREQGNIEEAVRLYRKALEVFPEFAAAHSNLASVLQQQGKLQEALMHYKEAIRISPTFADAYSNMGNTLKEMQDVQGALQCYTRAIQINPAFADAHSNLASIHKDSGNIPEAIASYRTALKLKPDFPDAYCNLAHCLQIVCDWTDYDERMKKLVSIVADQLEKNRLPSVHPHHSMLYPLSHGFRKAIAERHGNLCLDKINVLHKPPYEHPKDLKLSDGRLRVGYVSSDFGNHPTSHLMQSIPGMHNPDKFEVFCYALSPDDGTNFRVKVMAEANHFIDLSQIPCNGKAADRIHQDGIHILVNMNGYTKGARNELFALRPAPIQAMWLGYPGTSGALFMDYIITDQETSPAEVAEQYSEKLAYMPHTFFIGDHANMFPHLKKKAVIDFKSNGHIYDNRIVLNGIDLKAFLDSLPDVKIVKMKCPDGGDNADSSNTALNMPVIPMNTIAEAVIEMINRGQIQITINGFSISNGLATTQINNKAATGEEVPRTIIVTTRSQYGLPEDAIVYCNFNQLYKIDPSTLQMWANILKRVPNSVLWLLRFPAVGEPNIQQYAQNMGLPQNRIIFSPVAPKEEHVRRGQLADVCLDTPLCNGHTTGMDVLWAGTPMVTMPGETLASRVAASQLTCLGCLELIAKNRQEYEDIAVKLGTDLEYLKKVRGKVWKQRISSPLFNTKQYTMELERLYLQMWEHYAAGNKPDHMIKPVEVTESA

Study 1
Target: Sal-like protein 4, full length isoform B (SALL4, Homo sapiens, UniProt Q9UJQ4-2, residues 1-616)
Technique: universal PBM
Form: double-stranded DNA, one strand shown
Medium: in vitro
Tested at: not given
Notes: 8-mer, flanks averaged, mean of replicates
Direction: higher = stronger binding
Quantity: E-score
CCGCAAAA: -0.00451
CGAGTAAC: 0.0319
GTTCATAA: 0.35
TACTGATA: 0.242
CCGTAGAG: -0.249
ACTCACGC: -0.215
GATGAATC: 0.0828
ATGATGCA: 0.232

Study 2
Target: RNA binding protein fox-1 homolog 2, RRM domain, GST-SBP tag (RBFOX2, Homo sapiens, UniProt O43251-10, residues 100-194)
Technique: RNA Bind-n-Seq
Form: RNA
Medium: in vitro
Tested at: 365 nM
Notes: natural RNA segment, single round, ends assumed
Baseline: no-protein control
Direction: higher = stronger binding
Quantity: RBNS enrichment (R)
Shared flanks, not repeated: GGGAGUUCUACAGUCCGACGAUC … UGGAAUUCUCGGGUGCCAA
Target sequence (chain): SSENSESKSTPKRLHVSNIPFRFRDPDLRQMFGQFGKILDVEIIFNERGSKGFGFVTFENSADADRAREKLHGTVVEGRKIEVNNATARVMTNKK
AUACUUGUUUUCCCCAGAUGAGGCACUUGGUGAAUAAAGGAUGCUGGGAAAACUGUGUGUUAUAUUCUGUUGCAGGUAGUCUGGCUGUAUUUGGAAAGUUGCAAAGAAGG: 1.42
GUUACAAGGAUGCCUCUCCACACUUGUCCUCUCUACCCACCUACGCUGGAAAUCCAGUUCUUCAGGAACUGCCUUCCUCCCUAAUUCUGCUCUUGCUUUUCAGAGAGCCA: 0.598
AGAGCCACAGAAUUGCUUUCCUUCCCCGCCUUUGACAUGAGGCCUUCAGUAAAGAGCUACAGAACAUGAGUACAUUGUUAUACCACAGAUUUUUCUUGCAUUAGGGCACA: 1.26
AGCCAGGGAGCUGGUGACACUUGUGUGCUGUGGGGCAGCUGGGAUCCAGGUAAGACCGGAUUGAAGCUUUGAAAUUAGACUAACAAAGCUCCAGACAGCAAGAGCCCAGG: 0.369
GAGCACUCCCUACAUGGUAGGUUGUACCAGAGACCUAUGACCCCUGCCUUGUGGUAAACAGCAGGUGUUGGAUCAGAACCAUCGAUUUCCUGGCUGGCACCUGGUGUUGA: 0.294
AGGCCGCCCAGCUGCUGUGACUUAGAUAAUGAAAAGCUUCAACUCACCACCGUCAUUUUUUUUUCUUUUUCCUUUUUGUGCGUGUGUGGUUUUUAAUCUGUAUAUACUGU: 0.643
ACCUGUGUGUUCUUUUGAUACAUUUAUCUUCUGUUUUUCUCAAAUAAAGUUCAAAGCAACCACCUGUCACUGGCCCAGGCCCUGGUGUUUGUGGAAGGAAGCCUCAGGCA: 0.248
CCUGAAAGAUGUUUGAGGCUUGGGAUUCCAAACUUGGUUUAUUAAACAUAUAGUCACCAUCUUCCUAGAGUUGAAGACUUAUUUGUGGCGGGGUUGCACUUUUAGAGGUC: 0.64

Study 3
Target: Fragile X messenger ribonucleoprotein 1, C-terminal low-complexity region (Fmr1, Mus musculus, UniProt P35922)
Technique: RNA Bind-n-Seq
Form: RNA
Medium: in vitro
Tested at: 200 nM
Notes: whole 134-nt RNA, ends assumed
Together with: 150 mM KCl
Baseline: input library
Direction: higher = stronger binding
Quantity: log2 enrichment
Shared flanks, not repeated: GGGAGUUCUACAGUCCGACGAUC … UGGAAUUCUCGGGUGUCAAGG
CCUUUUUGAGAAGGCCGGACCCAUUUGGGAUCUACGUCUUAUGAUGGAUCCACUGUCCGGUCAGAAUAGAGGGUAUGCAUUUAUCACCUU: -1.19
GCAGGAAGUAAAAACAAAUGGAAAUGCUUCGGAUAAUGGCAGGGGUGGGGGUUGCUAAGGAAAGGGUGGGAUGGGAGUGGGUAAAGAGUU: 0.142
GCAGGAAGUAAAAACAAAUGGAAAUGCUUCGGAUAGUGGCAGGGGUAGGGGUUGCUAAGGAAAGGGUGGGAUGGGAGUGGGUAAAGAGUU: 0.0233
UAACUUUAGAGGAGGAUCUGAUGGAUAUGGCAGUGGACGUGGAUUUGGGGAUGGUUAUAAUGGGUAUGGAGGAGGACCUGGAGGUGGCAA: 0.277
UAACUCUAGAGGAGGAUCUGAUGGAUAUGGCAGUGGACGUGGAUUUGGGGAUGGCUAUAAUGGGUAUGGAGGAGGACCUGGAGGUGGCAA: 0.274
UGUUUAAUAAACGUGAAGAUGUCUCGCAGUCCUGAUGCGAAGGAAGACCCUGUGGAGUGCCCUCUUUGCAUGGAGCCCUUGGAGAUAGAU: -1.14
GUCCUGUGCUACACAUCGUAUGUACCGAAUCGGGGCCCCCCGGCCCCCCGGCCCCCCGGAAAGUAUUAUGUUACGCCGUUCGGAUCUGCA: -0.221
CUGUGCUACACAUCGUAUGUACCGAAUCGGGAAAAAAAGGGAAAAAAAGGGGAAAAAAAGGAAAGUAUUAUGUUACGCCGUUCGGAUCUG: -0.73

Single results of other studies
FHSTMPVYQLKYVN — enrichment fold change (UDP-N-acetylglucosamine--peptide N-acetylglucosaminyltransferase 110 kDa subunit (OGT, Homo sapiens, UniProt O15294); binding, phage display NGS; peptide; concentration not given; baseline: input library): 3.1

For quick reference, copied from above (study 1):
ATGATGCA: 0.232
GATGAATC: 0.0828
CCGTAGAG: -0.249
CCGCAAAA: -0.00451
